Experimental data from different studies.
Parts stem from different laboratories: compare values within a part only.
UniProt P42336, sequence (whole entry, unmodified, looked up): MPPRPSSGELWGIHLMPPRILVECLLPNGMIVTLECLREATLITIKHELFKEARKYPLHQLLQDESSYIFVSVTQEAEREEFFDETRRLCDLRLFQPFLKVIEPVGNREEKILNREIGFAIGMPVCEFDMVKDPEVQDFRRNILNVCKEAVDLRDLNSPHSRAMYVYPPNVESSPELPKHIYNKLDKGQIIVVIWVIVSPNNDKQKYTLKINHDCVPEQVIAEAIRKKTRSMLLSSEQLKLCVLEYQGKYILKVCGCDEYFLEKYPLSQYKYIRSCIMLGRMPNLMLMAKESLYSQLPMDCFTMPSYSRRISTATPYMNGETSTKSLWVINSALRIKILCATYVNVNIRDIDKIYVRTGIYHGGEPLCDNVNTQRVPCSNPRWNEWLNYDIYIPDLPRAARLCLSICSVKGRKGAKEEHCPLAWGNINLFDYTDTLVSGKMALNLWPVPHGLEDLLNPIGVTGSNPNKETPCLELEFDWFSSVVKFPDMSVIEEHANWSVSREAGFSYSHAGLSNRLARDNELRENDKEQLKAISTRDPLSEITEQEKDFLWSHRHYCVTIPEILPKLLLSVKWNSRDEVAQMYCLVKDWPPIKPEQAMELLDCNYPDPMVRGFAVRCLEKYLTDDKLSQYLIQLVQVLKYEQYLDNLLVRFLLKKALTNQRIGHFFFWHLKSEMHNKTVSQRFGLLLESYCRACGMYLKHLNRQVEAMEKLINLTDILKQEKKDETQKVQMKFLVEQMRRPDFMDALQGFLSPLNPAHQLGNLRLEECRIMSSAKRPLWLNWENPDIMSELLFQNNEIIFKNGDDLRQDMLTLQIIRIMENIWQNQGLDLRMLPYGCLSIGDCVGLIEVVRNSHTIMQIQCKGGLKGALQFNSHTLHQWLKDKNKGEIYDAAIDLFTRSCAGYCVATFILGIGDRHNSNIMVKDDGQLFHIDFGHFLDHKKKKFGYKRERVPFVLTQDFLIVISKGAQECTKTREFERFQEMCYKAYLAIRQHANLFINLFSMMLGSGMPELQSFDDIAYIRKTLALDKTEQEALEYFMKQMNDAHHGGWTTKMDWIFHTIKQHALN
UniProt P42679, sequence (whole entry, looked up): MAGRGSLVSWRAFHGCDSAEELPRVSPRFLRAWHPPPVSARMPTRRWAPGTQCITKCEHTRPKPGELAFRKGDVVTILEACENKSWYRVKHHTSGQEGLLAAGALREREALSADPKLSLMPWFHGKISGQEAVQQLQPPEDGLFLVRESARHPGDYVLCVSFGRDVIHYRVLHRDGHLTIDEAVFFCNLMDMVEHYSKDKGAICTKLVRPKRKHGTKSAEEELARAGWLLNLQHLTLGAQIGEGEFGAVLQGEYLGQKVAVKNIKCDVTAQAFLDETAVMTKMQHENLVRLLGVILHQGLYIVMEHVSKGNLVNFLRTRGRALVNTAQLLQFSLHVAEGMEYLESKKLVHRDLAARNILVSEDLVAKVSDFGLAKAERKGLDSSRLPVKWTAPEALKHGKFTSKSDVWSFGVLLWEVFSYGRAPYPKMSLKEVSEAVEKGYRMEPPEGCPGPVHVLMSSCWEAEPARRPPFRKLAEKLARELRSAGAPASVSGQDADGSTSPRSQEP
UniProt Q15139, sequence (whole entry, looked up): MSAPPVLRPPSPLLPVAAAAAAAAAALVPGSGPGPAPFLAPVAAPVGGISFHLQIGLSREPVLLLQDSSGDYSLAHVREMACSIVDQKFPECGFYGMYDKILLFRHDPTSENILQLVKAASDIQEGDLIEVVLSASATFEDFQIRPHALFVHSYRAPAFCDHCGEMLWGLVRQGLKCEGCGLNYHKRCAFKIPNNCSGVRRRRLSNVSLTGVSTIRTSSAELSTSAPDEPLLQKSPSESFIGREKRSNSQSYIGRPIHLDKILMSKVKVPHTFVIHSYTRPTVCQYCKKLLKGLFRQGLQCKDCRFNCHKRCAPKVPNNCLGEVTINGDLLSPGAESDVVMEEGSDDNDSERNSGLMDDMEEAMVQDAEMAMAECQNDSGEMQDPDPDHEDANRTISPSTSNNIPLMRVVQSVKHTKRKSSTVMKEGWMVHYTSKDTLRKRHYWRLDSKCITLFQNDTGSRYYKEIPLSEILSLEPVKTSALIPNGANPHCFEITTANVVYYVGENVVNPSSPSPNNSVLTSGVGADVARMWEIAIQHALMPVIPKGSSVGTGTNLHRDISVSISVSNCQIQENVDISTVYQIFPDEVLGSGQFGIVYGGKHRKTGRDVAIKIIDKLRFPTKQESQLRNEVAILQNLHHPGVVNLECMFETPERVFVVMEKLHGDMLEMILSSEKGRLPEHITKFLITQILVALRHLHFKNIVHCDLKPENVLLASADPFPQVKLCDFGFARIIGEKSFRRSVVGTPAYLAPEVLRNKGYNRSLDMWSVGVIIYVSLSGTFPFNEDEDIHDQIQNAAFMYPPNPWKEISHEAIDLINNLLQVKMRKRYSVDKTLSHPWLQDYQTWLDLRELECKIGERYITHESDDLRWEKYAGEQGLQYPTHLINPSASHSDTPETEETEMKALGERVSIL
UniProt Q9NY57, sequence (whole entry, looked up): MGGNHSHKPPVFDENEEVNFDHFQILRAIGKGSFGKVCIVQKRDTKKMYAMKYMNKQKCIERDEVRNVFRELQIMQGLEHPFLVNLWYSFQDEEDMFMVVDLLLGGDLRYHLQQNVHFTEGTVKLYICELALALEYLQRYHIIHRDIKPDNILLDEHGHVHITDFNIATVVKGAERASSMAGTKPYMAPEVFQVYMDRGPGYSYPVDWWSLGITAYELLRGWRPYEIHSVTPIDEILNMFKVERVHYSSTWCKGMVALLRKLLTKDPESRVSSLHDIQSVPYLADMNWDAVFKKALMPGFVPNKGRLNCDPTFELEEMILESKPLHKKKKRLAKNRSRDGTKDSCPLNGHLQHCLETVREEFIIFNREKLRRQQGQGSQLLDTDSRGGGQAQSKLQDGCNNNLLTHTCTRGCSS
UniProt Q9Y243, sequence (whole entry, looked up): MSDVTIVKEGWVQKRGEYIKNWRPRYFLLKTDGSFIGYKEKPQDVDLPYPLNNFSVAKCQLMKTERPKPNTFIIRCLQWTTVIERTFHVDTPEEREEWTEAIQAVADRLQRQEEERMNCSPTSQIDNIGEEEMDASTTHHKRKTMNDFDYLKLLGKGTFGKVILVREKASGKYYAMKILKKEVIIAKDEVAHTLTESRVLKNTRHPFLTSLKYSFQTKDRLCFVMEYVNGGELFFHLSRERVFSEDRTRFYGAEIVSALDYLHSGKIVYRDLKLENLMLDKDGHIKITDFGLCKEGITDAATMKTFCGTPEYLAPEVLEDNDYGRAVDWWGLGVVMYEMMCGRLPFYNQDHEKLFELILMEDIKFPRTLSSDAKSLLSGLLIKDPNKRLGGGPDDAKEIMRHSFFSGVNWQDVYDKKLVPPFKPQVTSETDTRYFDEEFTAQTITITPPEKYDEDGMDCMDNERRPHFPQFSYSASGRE
UniProt O95835, sequence (whole entry, looked up): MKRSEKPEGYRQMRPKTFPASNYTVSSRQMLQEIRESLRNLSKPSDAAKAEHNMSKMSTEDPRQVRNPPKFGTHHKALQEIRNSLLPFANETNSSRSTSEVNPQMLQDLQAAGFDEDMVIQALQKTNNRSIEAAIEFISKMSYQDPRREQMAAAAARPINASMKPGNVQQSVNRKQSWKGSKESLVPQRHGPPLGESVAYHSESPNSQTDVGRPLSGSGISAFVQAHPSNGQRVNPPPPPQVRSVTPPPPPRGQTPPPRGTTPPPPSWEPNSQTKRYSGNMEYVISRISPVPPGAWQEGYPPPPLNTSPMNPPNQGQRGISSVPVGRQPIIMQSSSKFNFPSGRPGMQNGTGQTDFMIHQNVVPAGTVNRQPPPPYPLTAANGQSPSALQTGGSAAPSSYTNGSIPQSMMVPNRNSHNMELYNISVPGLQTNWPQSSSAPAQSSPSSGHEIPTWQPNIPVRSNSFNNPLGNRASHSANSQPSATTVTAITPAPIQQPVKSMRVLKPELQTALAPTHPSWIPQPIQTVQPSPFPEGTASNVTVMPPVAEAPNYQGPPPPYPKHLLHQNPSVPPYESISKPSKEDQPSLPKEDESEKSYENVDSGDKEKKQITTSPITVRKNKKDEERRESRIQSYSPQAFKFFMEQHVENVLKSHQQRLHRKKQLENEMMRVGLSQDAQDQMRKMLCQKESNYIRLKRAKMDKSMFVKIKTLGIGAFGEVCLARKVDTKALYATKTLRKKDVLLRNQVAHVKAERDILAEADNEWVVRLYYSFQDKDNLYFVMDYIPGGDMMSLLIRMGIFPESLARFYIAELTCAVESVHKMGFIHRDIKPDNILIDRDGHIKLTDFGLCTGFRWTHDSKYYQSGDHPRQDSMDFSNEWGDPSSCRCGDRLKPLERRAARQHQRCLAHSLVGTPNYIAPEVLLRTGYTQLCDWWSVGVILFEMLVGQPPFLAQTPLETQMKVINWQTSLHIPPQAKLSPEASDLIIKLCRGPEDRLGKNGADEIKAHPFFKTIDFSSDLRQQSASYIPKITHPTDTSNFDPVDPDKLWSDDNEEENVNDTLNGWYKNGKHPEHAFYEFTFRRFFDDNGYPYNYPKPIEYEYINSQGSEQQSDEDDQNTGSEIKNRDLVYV

Sample 1
Target: Serine/threonine-protein kinase 3 (STK3, Homo sapiens, UniProt Q13188)
Read-out: enzyme activity
Action: inhibitor
Tested at: 0.5 µM
Reference: control
Target sequence (Q13188 1-491): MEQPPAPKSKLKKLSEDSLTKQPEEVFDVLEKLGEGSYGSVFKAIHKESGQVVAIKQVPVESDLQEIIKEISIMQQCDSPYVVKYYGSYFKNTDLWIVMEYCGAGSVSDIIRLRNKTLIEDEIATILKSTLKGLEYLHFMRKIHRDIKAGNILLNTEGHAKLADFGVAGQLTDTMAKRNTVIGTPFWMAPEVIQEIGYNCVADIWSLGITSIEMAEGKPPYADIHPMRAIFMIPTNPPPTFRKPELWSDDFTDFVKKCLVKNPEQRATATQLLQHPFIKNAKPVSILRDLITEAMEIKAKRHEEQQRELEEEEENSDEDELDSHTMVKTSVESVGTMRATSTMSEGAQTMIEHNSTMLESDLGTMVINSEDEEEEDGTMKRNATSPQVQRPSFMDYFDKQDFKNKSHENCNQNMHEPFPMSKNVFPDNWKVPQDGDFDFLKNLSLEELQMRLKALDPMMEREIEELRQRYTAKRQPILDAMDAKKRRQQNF
| Compound | remaining activity [%] |
| --- | --- |
| O=C(CCCc1ccc(-c2ccccc2F)cc1)Nc1ccc(O)cc1 | 94.8 |
| N#CC(C#N)=C(N)/C(C#N)=C/c1ccc(O)cc1 | 95.2 |
| O=C(O)c1ccc2c3c1cccc3c(=O)n1c3ccccc3nc21 | 97.1 |
| COc1cc2ncnc(Nc3ccc(Oc4ccccc4)cc3)c2cc1OC | 121 |
| NCCNc1ncc(C(N)=O)c(Nc2cccc(C(F)(F)F)c2)n1 | 98 |
| OCC(O)CCON=C1C(c2c(O)[nH]c3ccccc23)=Nc2ccccc21 (stereo not drawn) | 4.81 |
| COc1ccc(C(=O)Nc2sc3c(c2C(N)=O)CCCC3)cc1OC | 99.6 |
| O=C1NC(=O)C(c2cn(CCCn3ccnc3)c3ccccc23)=C1Nc1ccccc1 | 52 |
| O=C1NC(=O)C(c2cn(CCCO)c3ncccc23)=C1c1cnccn1 | 74.4 |
| O=C(Nc1cccc(Nc2cc(Nc3cccc(C(F)(F)F)c3)ncn2)c1)C1CC1 | 102 |
| CN(C)c1ccc(C=C2C(=O)Nc3ccccc32)cc1 | 100 |
| COc1ccc(OC)c2c(=S)c3ccccc3[nH]c12 | 104 |
| CO[C@H]1C[C@@H]2CC[C@@H](C)[C@@](O)(O2)C(=O)C(=O)N2CCCC[C@H]2C(=O)O[C@H]([C@H](C)C[C@@H]2CC[C@@H](O)[C@H](OC)C2)CC(=O)[C@H](C)/C=C(\C)[C@@H](O)[C@@H](OC)C(=O)[C@H](C)C[C@H](C)/C=C/C=C/C=C/1C | 105 |
| C#Cc1cccc(Nc2ncnc3cc(OCCOC)c(OCCOC)cc23)c1 | 94.9 |
| COc1ccc(CNC(=O)Nc2ncc([N+](=O)[O-])s2)cc1 | 92.6 |
| Cc1ccc(Nc2nccc(N(C)c3ccc4c(C)n(C)nc4c3)n2)cc1S(N)(=O)=O | 95.4 |

Sample 2
SMILES: C[C@H]1CC[C@H](n2c3cnccc3c3cnc(Nc4ccc5c(n4)CCN(C(=O)CO)C5)nc32)CC1
Read-out: cell-free assay
Tested at: 1 µM
| target | remaining signal |
| --- | --- |
| RAC-gamma serine/threonine-protein kinase (AKT3, Homo sapiens, UniProt Q9Y243) | 100% |
| Phosphatidylinositol 4,5-bisphosphate 3-kinase catalytic subunit alpha isoform (PIK3CA, Homo sapiens, UniProt P42336, M1043I) | 100% |
| Serine/threonine-protein kinase LATS2 (LATS2, Homo sapiens, UniProt Q9NRM7) | 46% |
| Serine/threonine-protein kinase tousled-like 2 (TLK2, Homo sapiens, UniProt Q86UE8) | 63% |
| Serine/threonine-protein kinase 32B (STK32B, Homo sapiens, UniProt Q9NY57) | 100% |
| Serine/threonine-protein kinase D1 (PRKD1, Homo sapiens, UniProt Q15139) | 100% |

Sample 3
SMILES: COc1cccc(CNC(=O)c2nc3scc(COCc4ccc(C(=O)O)cc4)c3c(=O)[nH]2)c1
Read-out: cell-free assay
Method: competition with immobilised ligand
Tested at: 1 µM
| target | remaining binding |
| --- | --- |
| Macrophage colony-stimulating factor 1 receptor (CSF1R, Homo sapiens, UniProt P07333) | 100% |
| Serine/threonine-protein kinase LATS1 (LATS1, Homo sapiens, UniProt O95835) | 100% |
| Megakaryocyte-associated tyrosine-protein kinase (MATK, Homo sapiens, UniProt P42679) | 97.8% |
| Tyrosine-protein kinase SYK (SYK, Homo sapiens, UniProt P43405) | 100% |
| Phosphatidylinositol 4,5-bisphosphate 3-kinase catalytic subunit alpha isoform (PIK3CA, Homo sapiens, UniProt P42336, E545A) | 89.2% |

Sample 4
Target: Diamine acetyltransferase 1 (Homo sapiens, UniProt P21673)
Action: inhibitor
Tested at: 10 µM
Reference: control
Residues (P21673 1-171): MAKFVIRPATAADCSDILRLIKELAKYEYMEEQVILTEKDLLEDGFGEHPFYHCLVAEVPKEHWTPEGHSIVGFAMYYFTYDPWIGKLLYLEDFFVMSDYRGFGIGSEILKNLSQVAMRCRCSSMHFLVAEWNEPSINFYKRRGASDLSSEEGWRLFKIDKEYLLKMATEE
| SMILES | remaining activity |
| --- | --- |
| COc1cc(C[C@H]2CO[C@H](c3ccc(O)c(OC)c3)[C@H]2CO)ccc1O | 72.1% |
| COc1cc(O)c2c(c1)C(=O)c1cc(C)cc(O[C@@H]3O[C@H](CO)[C@@H](O)[C@H](O)[C@H]3O)c1C2=O | 93.6% |
| COc1cc(CO)ccc1O | 91.7% |
| O=C(O)CCC(=O)O | 93.5% |
| O=C(/C=C/c1ccc(O)c(O)c1)O[C@@H](C(=O)O)[C@@H](O)C(=O)O | 101% |
| O=c1cc(-c2ccc(O)c(-c3c(O)cc(O)c4c(=O)cc(-c5ccc(O)cc5)oc34)c2)oc2cc(O)cc(O)c12 | 106% |

A few entries again (sample 1):
| Compound | remaining activity [%] |
| --- | --- |
| O=C(CCCc1ccc(-c2ccccc2F)cc1)Nc1ccc(O)cc1 | 94.8 |
| N#CC(C#N)=C(N)/C(C#N)=C/c1ccc(O)cc1 | 95.2 |
| O=C(O)c1ccc2c3c1cccc3c(=O)n1c3ccccc3nc21 | 97.1 |
| COc1cc2ncnc(Nc3ccc(Oc4ccccc4)cc3)c2cc1OC | 121 |
